Results gathered from unrelated publications.
Lines come from different studies, so protocols differ. Numbers after ± are the reported error. In brackets after ≈: the same amount, converted by molar mass.

| SMILES | target | test | system | setting | how to read | measurement | value |
| --- | --- | --- | --- | --- | --- | --- | --- |
| CC(C)C[C@H](NC(=O)[C@H](C)NC(=O)[C@H](CCCCN)NC(=O)[C@H](CCCNC(=N)N)NC(=O)[C@H](CCC(=O)O)NC(=O)[C@H](C)NC(=O)[C@H](CCC(=O)O)NC(=O)[C@H](CCCCN)NC(=O)[C@H](CCCCN)NC(=O)[C@H](CC(=O)O)NC(=O)[C@H](Cc1c[nH]cn1)NC(=O)[C@H](CC(=O)O)NC(=O)[C@H](Cc1c[nH]cn1)NC(=O)[C@H](CCCNC(=N)N)NC(=O)[C@H](CCC(=O)O)NC(=O)[C@H](CO)NC(=O)[C@H](CCCCN)NC(=O)[C@H](CC(C)C)NC(=O)[C@H](CCCNC(=N)N)NC(=O)[C@H](CCC(=O)O)NC(=O)[C@H](CC(C)C)NC(=O)[C@H](CCC(=O)O)NC(=O)[C@H](C)NC(=O)[C@H](CCC(=O)O)NC(=O)[C@H](CCC(=O)O)NC(=O)[C@H](C)NC(=O)[C@H](C)NC(=O)[C@H](CCC(=O)O)NC(=O)[C@H](CC(N)=O)NC(=O)[C@H](CCCCN)NC(=O)[C@H](CC(C)C)NC(=O)[C@H](CCCNC(=N)N)NC(=O)[C@H](CCC(N)=O)NC(=O)[C@H](CC(C)C)NC(=O)[C@H](CCC(=O)O)NC(=O)[C@H](C)NC(=O)[C@H](CC(=O)O)NC(=O)[C@H](C)NC(=O)[C@@H](NC(=O)[C@H](CC(C)C)NC(=O)[C@H](CCCCN)NC(=O)[C@H](CCC(=O)O)NC(=O)[C@@H](NC(=O)[C@H](CO)NC(=O)CN)C(C)C)[C@@H](C)O)C(=O)N[C@@H](CCC(=O)O)C(=O)N[C@@H](CC(=O)O)C(=O)N[C@@H](CCCCN)C(=O)N[C@@H](CC(C)C)C(=O)N[C@@H](C)C(=O)N[C@@H](CC(=O)O)C(=O)N[C@@H](Cc1ccc(O)cc1)C(=O)O | human K2 plasminogen complex | analytical ultracentrifugation | – | pH 7.4, 25 °C | – | molecular mass | 16200 ± 1000 Da |
| CC(C)CC(C)N1CCn2cc(C(=O)NCc3ccc(F)cc3F)c(=O)c(O)c2C1=O (stereo not shown) | HIV-1 integrase wild type | viral replication | HOS, HIV-1 | single-round vector | – | EC50 | 0.006 ± 0.0012 µM |
| CC[S+]([O-])C1C(CO)OC(OC2C(N)CC(N)C(O)C2OC2OC(CO)C(OC3OC(CN)C(O)C(O)C3N)C2O)C(N)C1O (mixture of isomers) | bacterial hybrid ribosome, human cytoplasmic A site | cell-free translation | – | – | relative to: cytoplasmic hybrid over wild-type bacterial | selectivity ratio | 246 |
| CC/C(=C\CC[C@H](C)C[C@@H](C)CC[C@H](O)[C@H](C)C(=O)CC(O)[C@H](C)[C@@H](C)OC(=O)C[C@@H](O)C1=C(C)C(=O)OC1=O)C(O)CC(=O)O (stereo partly shown) | PP1 (human) | enzyme activity | MCF7 | 20 µM, 4 h | relative to: untreated | inhibition | 38% |
| COc1ccc(S(=O)(=O)n2nc(OC(=O)c3cccc(-c4ccccc4)c3)cc2N)cc1 | dengue virus 2 protease S135A | ESI-TOF MS | – | 20 µM, 1 h, 25 °C | relative to: DMSO control | protein mass shift | 0 Da |
| O=C(Oc1nsnc1N1CCOCC1)N1CCOCC1 | trypsin | enzyme activity, inhibitor, gel-based | – | up to 300 µM, with: denatured BSA substrate | – | inhibition | no inhibition |
| NC[C@@H]1O[C@H](O[C@H]2[C@@H](O)[C@H](O[C@@H]3[C@@H](O)[C@H](N)C[C@H](N)[C@H]3O[C@H]3O[C@H](CO)[C@@H](CCO)[C@H](O)[C@H]3N)O[C@@H]2CO)[C@H](N)[C@@H](O)[C@@H]1O | bacterial hybrid ribosome, human mitochondrial A site | cell-free translation | – | – | relative to: mitochondrial hybrid over wild-type bacterial | selectivity ratio | 1030 |
| Cc1ncsc1-c1ccc(CNC(=O)[C@@H]2C[C@@H](O)CN2C(=O)[C@@H](NC(=O)CN2CCN(C3CN(CCNC(=O)c4cc5c(cc4CS(C)(=O)=O)-c4cn(C)c(=O)c6[nH]cc(c46)CN5c4ncc(F)cc4F)C3)CC2)C(C)(C)C)cc1 | Spodoptera frugiperda BRD3 | degrader, targeted MS | Spodoptera frugiperda L5 larvae | injection, 0.1 nmol/mg | – | degradation | 35% |
| CC1(C)C(/C=C(\Cl)C(F)(F)F)C1C(=O)OC(C#N)c1cccc(Oc2ccccc2)c1 (stereo not shown) | glutathione S-transferase, Vaccinium arctostaphylos fruit | enzyme activity | – | concentration not given, with: CDNB and GSH | – | inhibition | inhibited |
| Cc1cc(Nc2nc(C[C@@]3(C(=O)O)CCN(Cc4cccc(Cl)c4F)[C@H](C)C3)cc(C)c2F)[nH]n1 | Aurora kinase A | phosphorylation, measured: p-AURKA Thr288 | mouse, NCI-H446 xenograft, tumour | oral, 10 mg/kg, up to 12 h | – | inhibition | ~80% |
| CCS(=O)(=O)[C@H]1[C@H](O)[C@@H](N)[C@@H](O[C@H]2[C@H](O[C@@H]3O[C@H](CO)[C@@H](O[C@H]4O[C@@H](CN)[C@@H](O)[C@H](O)[C@H]4N)[C@H]3O)[C@@H](O)[C@H](N)C[C@@H]2N)O[C@@H]1CO | bacterial hybrid ribosome, human cytoplasmic A site | cell-free translation | – | – | relative to: cytoplasmic hybrid over wild-type bacterial | selectivity ratio | 16 |
| O=C1N[C@@H](Cc2ccccc2)C(=O)N2CCC[C@@H]2C(=O)N[C@@H](Cc2ccccc2)C(=O)N[C@H]1Cc1c[nH]c2ccccc12 | kappa opioid receptor | antagonist | CHO cell membranes expressing KOR | with: dynorphin A | – | Kb | 0.0652 ± 0.0016 µM |
| CC[C@H]1CN2CCc3c([nH]c4cccc(OC)c34)[C@H]2C[C@@H]1/C(=C\OC)C(=O)OC | rabbit anti-mitragynine polyclonal antibody | antigen binding, competitor, competitive indirect ELISA | – | 0.001 to 50.0 µg/mL | – | IC50 | 2.27 mg/L (≈ 5.7 µM) |
| CC(C)CS[C@H]1[C@H](O)[C@@H](N)[C@@H](O[C@H]2[C@H](O[C@@H]3O[C@H](CO)[C@@H](O[C@H]4O[C@@H](CN)[C@@H](O)[C@H](O)[C@H]4N)[C@H]3O)[C@@H](O)[C@H](N)C[C@@H]2N)O[C@@H]1CO | bacterial hybrid ribosome, human mitochondrial A site | cell-free translation, inhibitor | – | – | – | IC50 | 180 mg/L (≈ 262 µM) |
| O=C(N[C@@H](Cn1cncn1)c1ccc(Cl)cc1Cl)c1ccc(-c2nnc(-c3ccccc3)o2)cc1 | Leishmania infantum CYP51 | – | – | concentration not given | – | remaining activity | 17 ± 1.2% |
| CCCCCCCCC(=O)NCc1ccc(O)c(OC)c1 | mouse mAb 1-G12 | antibody binding, indirect competitive ELISA | – | with: coating antigen 4-OVA | – | IC50 | 0.178 mg/L (≈ 0.605 µM) |
| Cc1cc(C(=O)NCCc2ccc(-c3ccccc3)cc2)cc(C)c1C[C@H](N)C(=O)N1Cc2ccccc2C[C@H]1C(=O)O | mu opioid receptor, guinea pig | antagonist | guinea pig ileum | – | – | Ke | 2910 ± 570 nM |
| CCCS[C@H]1[C@H](O)[C@@H](N)[C@@H](O[C@H]2[C@H](O[C@@H]3O[C@H](CO)[C@@H](O[C@H]4O[C@@H](CN)[C@@H](O)[C@H](O)[C@H]4N)[C@H]3O)[C@@H](O)[C@H](N)C[C@@H]2N)O[C@@H]1CO | bacterial hybrid ribosome, human cytoplasmic A site | cell-free translation | – | – | relative to: cytoplasmic hybrid over wild-type bacterial | selectivity ratio | 1860 |
| C=CCn1nnc2c(NCc3ccc(C)s3)nc(N[C@H](CC)CO)nc21 | Cav2.1 channel | ion current, perforated patch clamp | HEK293 transfected with Cav2.1 | 50 µM, 100 ms steps from -100 to +20 mV | relative to: maximal effect | effect on tail current | 25 to 45% |
| Cc1ccc(N2CC3CCC(C2)N3C)cc1C(=O)N[C@H](C)c1cc(-c2cnn(C)c2)nc2ccccc12 | trypsin | enzyme activity | – | concentration not given | – | inhibition | no inhibition |
| NC[C@@H]1O[C@H](O[C@H]2[C@@H](O)[C@H](O[C@@H]3[C@@H](O)[C@H](N)C[C@H](N)[C@H]3O[C@H]3O[C@H](CO)[C@@H](SCCF)[C@H](O)[C@H]3N)O[C@@H]2CO)[C@H](N)[C@@H](O)[C@@H]1O | bacterial hybrid ribosome, human mitochondrial A1555G A site | cell-free translation, inhibitor | – | – | – | IC50 | 52 mg/L (≈ 76.7 µM) |
| C[C@H](N)C(=O)N[C@@H](CO)C(=O)N[C@@H](C)C(=O)N[C@H]1CSC(=O)[C@H](Cc2ccccc2)NC(=O)[C@H](Cc2ccc(O)cc2)NC(=O)[C@H](C)NC(=O)[C@H](CO)NC1=O | AgrC-II | inhibitor, GFP reporter | Staphylococcus epidermidis, agr group-II reporter | 100 nM | – | AgrC-II activity | inhibited |
| CC(=O)N1c2ccc(-c3ccc(C(=O)NCCN4CC(N5CCN(CC(=O)N[C@H](C(=O)N6C[C@H](O)C[C@H]6C(=O)NCc6ccc(-c7scnc7C)cc6)C(C)(C)C)CC5)C4)cc3)cc2[C@H](Nc2ccc(Cl)cc2)C[C@@H]1C | Spodoptera frugiperda BRD3 | degrader, targeted MS | Spodoptera frugiperda L5 larvae | injection, 0.1 nmol/mg | – | degradation | 29% |
| CC[C@H](C)[C@H](NC(=O)[C@H](CCCNC(=N)N)NC(=O)[C@H](CCCNC(=N)N)NC(=O)[C@H](CC(C)C)NC(=O)[C@H](Cc1ccccc1)NC(=O)CNC(=O)CNC(=O)[C@@H](N)Cc1ccc(O)cc1)C(=O)N[C@@H](CCCNC(=N)N)C(=O)N1CCC[C@H]1C(=O)N[C@@H](CCCCN)C(=O)N[C@@H](CC(C)C)C(=O)N[C@@H](CCCCN)C(=O)N[C@@H](Cc1c[nH]c2ccccc12)C(=O)N[C@@H](CC(=O)O)C(=O)N[C@@H](CC(N)=O)C(=O)N[C@@H](CCC(N)=O)C(=O)O | Rana pipiens delta opioid receptor | agonist | HEK-293T | – | – | EC50 | 1.7 µM |
| CC(C)S[C@H]1[C@H](O)[C@@H](N)[C@@H](O[C@H]2[C@H](O[C@@H]3O[C@H](CO)[C@@H](O[C@H]4O[C@@H](CN)[C@@H](O)[C@H](O)[C@H]4N)[C@H]3O)[C@@H](O)[C@H](N)C[C@@H]2N)O[C@@H]1CO | bacterial hybrid ribosome, human cytoplasmic A site | cell-free translation | – | – | relative to: cytoplasmic hybrid over wild-type bacterial | selectivity ratio | 1110 |
| CCO[C@H]1[C@H](O)[C@@H](N)[C@@H](O[C@H]2[C@H](O[C@@H]3O[C@H](CO)[C@@H](O[C@H]4O[C@@H](CN)[C@@H](O)[C@H](O)[C@H]4N)[C@H]3O)[C@@H](O)[C@H](N)C[C@@H]2N)O[C@@H]1CO | Mycobacterium smegmatis ribosome G1491C | translation, cell-free translation | – | – | relative to: G1491C mutant over wild type | IC50 ratio | 3000 |
| Nc1c2c([n+](CCCCCCCCCC[n+]3c4c(c(N)c5ccccc53)CCC4)c3ccccc13)CCC2 | HIV-1 92UG024.2 Env MPER-TMD | – | – | concentration not given, residues 660-710 | – | NMR peak intensity decrease | 40 to 60% |
| Cc1cc(O)cc(-c2nc(Nc3cc(C(F)(F)F)cc(C(F)(F)F)c3)ncc2-c2ccnc(Cl)c2)c1 | tyrosine kinases from HT-29 cells | kinase activity | – | 10 µM | – | inhibition | 30.4 ± 2.3% |

Repeated from above:
| SMILES | target | test | system | setting | how to read | measurement | value |
| --- | --- | --- | --- | --- | --- | --- | --- |
| O=C1N[C@@H](Cc2ccccc2)C(=O)N2CCC[C@@H]2C(=O)N[C@@H](Cc2ccccc2)C(=O)N[C@H]1Cc1c[nH]c2ccccc12 | kappa opioid receptor | antagonist | CHO cell membranes expressing KOR | with: dynorphin A | – | Kb | 0.0652 ± 0.0016 µM |
| CC[C@H]1CN2CCc3c([nH]c4cccc(OC)c34)[C@H]2C[C@@H]1/C(=C\OC)C(=O)OC | rabbit anti-mitragynine polyclonal antibody | antigen binding, competitor, competitive indirect ELISA | – | 0.001 to 50.0 µg/mL | – | IC50 | 2.27 mg/L (≈ 5.7 µM) |
| CC(C)CS[C@H]1[C@H](O)[C@@H](N)[C@@H](O[C@H]2[C@H](O[C@@H]3O[C@H](CO)[C@@H](O[C@H]4O[C@@H](CN)[C@@H](O)[C@H](O)[C@H]4N)[C@H]3O)[C@@H](O)[C@H](N)C[C@@H]2N)O[C@@H]1CO | bacterial hybrid ribosome, human mitochondrial A site | cell-free translation, inhibitor | – | – | – | IC50 | 180 mg/L (≈ 262 µM) |
